Measurements of several laboratories.
A part holds a random share of what one study measured.

Study 1 — method: RNA Bind-n-Seq; form: RNA; medium: in vitro; tested at: not given; baseline: input RNA pool; reading: higher = stronger binding; endpoint: bound/input enrichment
Target: RING finger protein unkempt homolog, zinc fingers 1-6, GST-SBP tag (UNK, Homo sapiens, UniProt Q9C0B0, residues 30-357)
Setting: RNA with constant flanks, human and mouse sites, ends assumed
Shared flanks, not repeated: GGGAGUUCUACAGUCCGACGAUC … CAACAGAGGAUUGAGCAUCA
Residues (chain): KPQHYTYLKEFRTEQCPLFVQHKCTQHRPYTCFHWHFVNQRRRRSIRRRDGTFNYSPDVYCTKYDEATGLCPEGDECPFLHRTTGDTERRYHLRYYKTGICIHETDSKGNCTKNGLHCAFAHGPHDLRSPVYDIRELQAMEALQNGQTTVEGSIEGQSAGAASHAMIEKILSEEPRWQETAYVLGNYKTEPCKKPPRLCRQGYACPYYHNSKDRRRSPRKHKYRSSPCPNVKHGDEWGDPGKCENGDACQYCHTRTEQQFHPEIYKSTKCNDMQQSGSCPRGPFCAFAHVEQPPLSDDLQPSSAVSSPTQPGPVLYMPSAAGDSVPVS
GAAGGCAAACCACUCUUCUCCCAGGCCUCUGCUCACCAGGGCUUGAGCUUUGCCUCAAGGAUAGAAGGAUGUACAGAGGGGGCUCUUGGUUUGAGGACCACUUGAGCCGUUUUCUCAUCU: 0.233 ratio
GAAUUUGCUCCAAGCAGAUAGCUCCCUCUGAGGAACCAAAGGAAGCAAGUUUCCACGAUUUCUGAAGAGCUGGUAUAGGAAGUUUCUUUCUUCCUUUUGUGUUACAUGUGCAUUAAACAG: 0.182 ratio
CAUGGACAGCAAGCCUUGGGUAACCGGACCAGGCCAAGGGUCUACAAUUCUCCAACAAAUAGCUCCUCUACCCAGGAUUCUAUGGAGGUUGGCCACAGUCACCACUCCAUGACAUCCCUG: 0.0634 ratio
GCUGGUCAUCCUCUGGCCCAGAAUGAACGUUGUCUUCACAUGUUUUUACAGGAUGAAAUUAUAGAUAAAAGCUAUACUCCAUCUAAAAUAAGACAUGCCUGAGUUUGGUGAGAAGAAGCA: 0.258 ratio
GAUGGGCAGUACUUUGUCUGCAAUAUGGAUGAUUUUAAGUUCUCUGCAGAGCUGAUCCAGCAUAUCCCACUAAGUCUCCGGGUGAGGUAUGUGUUCUGCACAGCCCCCAUCAAUAAGAAG: 0.133 ratio
GGAGGGUCUGAUUUUUUAAGGAAAAGAUUGCAGAAAGGGCAAAAGUAUUUUGAUUCUGGGGACUACAACAUGGCAAAAGCAAAGAUGAAGAACAAGCAGCUUCCUGCUGCAGCCCCGGAU: 0.513 ratio
GGUUUGGUUAUGACAGAGGCACAUCUUCCUAGCCAGACUUUGGAGCAGGGACUCGAUGUCCUGGAAAUUAUGAGAAACAUUCACAUAUUUGUCUCAAGAUACCUCUAUAAUCUCAAUAAC: 0.105 ratio
GUUUUGCCAAAACCUCGGAUGCGUGGCCUUCUGGCCAGGCGUCUGCGAAAUCAUAUGGCUGUAGCAUUCGUGCUAUCCCUGGGGGUUGCAGCUUUGUAUAAGUUUCGUGUGGCUGAUCAA: 0.0806 ratio

Study 2 — method: universal PBM; form: double-stranded DNA, one strand shown; medium: in vitro; tested at: not given; reading: higher = stronger binding; endpoint: E-score
Target: Sal-like protein 4, full length isoform B (SALL4, Homo sapiens, UniProt Q9UJQ4-2, residues 1-616)
Setting: 8-mer, flanks averaged, mean of replicates
Construct (chain): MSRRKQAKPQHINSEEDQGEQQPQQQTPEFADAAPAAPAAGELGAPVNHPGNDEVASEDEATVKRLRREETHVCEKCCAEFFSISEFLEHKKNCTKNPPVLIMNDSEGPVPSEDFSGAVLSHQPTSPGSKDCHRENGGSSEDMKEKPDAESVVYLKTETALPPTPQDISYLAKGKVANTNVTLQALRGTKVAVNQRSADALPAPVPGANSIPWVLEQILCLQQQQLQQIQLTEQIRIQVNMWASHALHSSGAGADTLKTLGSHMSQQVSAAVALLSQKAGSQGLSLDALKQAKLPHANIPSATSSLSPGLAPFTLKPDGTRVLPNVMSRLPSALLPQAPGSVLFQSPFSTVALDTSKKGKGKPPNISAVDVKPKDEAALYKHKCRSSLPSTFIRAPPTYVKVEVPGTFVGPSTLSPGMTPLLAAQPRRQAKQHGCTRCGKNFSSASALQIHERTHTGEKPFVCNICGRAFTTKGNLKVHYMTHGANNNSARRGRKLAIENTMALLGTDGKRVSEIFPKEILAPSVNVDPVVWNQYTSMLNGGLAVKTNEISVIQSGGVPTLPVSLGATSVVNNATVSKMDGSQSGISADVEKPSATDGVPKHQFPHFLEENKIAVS
CCACACAA: 0.00907
AGCGGAAG: -0.176
GGGTGAAC: -0.0088
GGCGATAA: 0.0828
TTTACAAA: 0.24
CCAGTTAG: -0.09
CTCGGCAC: -0.35
AGCCATTG: 0.029
TTCTGCAA: 0.137
CTACTGAA: -0.0402
CAGGAGGG: -0.137
TACGCGGA: 0.0326
GCCCCGCC: -0.252
ACCTCGGC: -0.338
CAAGTCCA: -0.00739
CATTCCGA: 0.0765
AAGGAGCA: -0.0493

Study 3 — method: protein binding microarray; form: double-stranded DNA, one strand shown; medium: in vitro; tested at: not given; baseline: not given; reading: higher = stronger binding; endpoint: E-score
Target: Histone acetyltransferase KAT6A, both winged helices, GST fusion (KAT6A, Homo sapiens, UniProt Q92794, residues 1-181)
Setting: 8-mer, flanks averaged, mean of 2 arrays, mostly near background
Target sequence (chain): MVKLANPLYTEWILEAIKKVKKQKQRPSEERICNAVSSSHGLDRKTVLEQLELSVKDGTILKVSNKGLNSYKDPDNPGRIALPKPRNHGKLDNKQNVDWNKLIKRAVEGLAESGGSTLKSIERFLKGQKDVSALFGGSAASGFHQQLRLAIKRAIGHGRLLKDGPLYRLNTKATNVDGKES
CCTCGAGG: -0.193
ATACATAC: -0.0678
CCAGTCAG: -0.0799
CACCAGTC: -0.0479
GACACTTA: 0.00754
CTGAAGTC: 0.00897
CTTTAGGC: 0.0498
CGACACAA: -0.107
CAGACCAC: -0.158
CAATCAAC: 0.0428
AACTAGGG: -0.24
CTAAGTTA: -0.0726
AAAAAATC: -0.0163
CGACGAAC: 0.178
CCTCCTAA: -0.272
CCACATCA: -0.163
ACGTGGTG: -0.0398
GGTCTCCA: -0.197
AACAACAC: -0.134
AACTAGGT: -0.154
GAAATCGA: 0.108
GCGAACGA: 0.0547
GACCGCCC: 0.117
CTAAACAG: -0.0466
AACTGATC: -0.0706

Study 4 — method: protein-binding microarray; form: double-stranded DNA, one strand shown; medium: in vitro; tested at: 250 nM; setting: 60-bp whole probe; added: salmon DNA 0.4 mg/ml; baseline: random background probes; reading: higher = stronger binding; endpoint: log fluorescence; shared flanks, not repeated: GCCTAGCAC … GTCTTGATTCGCTTGACGCTGCTG
Target: Interferon regulatory factor 5, full length, phosphomimetic (IRF5, Homo sapiens, UniProt Q13568-2, residues 1-514, K96S/S451D/S453D/S456D/S462D)
TCACCTCTAGGTCTTCTACTGTGCTAG: -0.196 z-score
ATCGTAAGCAAAAATGATTGGTGCTAG: 0.502 z-score
TCACCTATAGGTTTCTAACTGTGCTAG: 0.555 z-score
GACGGTTTCGACACTGGTGACGTGCTA: 4.63 z-score
GACGGTCTCGGTCTCGGGATGTGCTAG: 0.16 z-score
GACGATCTCAGTCTTGAGACGTGCTAG: -0.257 z-score
TTAGAATTCAGTATCGATTAGTGCTAG: 8.03 z-score
GACGGTTTCGCTCTCGGGACGTGCTAG: 5.65 z-score
GACGGTCTCTGTCTCGGGACGTGCTAG: -0.183 z-score
GACGGTATCCTTATCCTAACGTGCTAG: 0.1 z-score
TACGATTTCGGGACTGGAGACGTGCTA: 1.76 z-score
TGGGTATTTTTTCTGAACCAGTGCTAG: 0.589 z-score
TTAGGTATCGACTATCAGTTAGTGCTA: 4.77 z-score
TCACATTTGATAAATCTTACTGTGCTA: 0.878 z-score
TTAGGTCTACTTTTCCTTTAGTGCTAG: 0.445 z-score
AGACAAGCATTTGGTGATGCGTGCTAG: -0.488 z-score
ATTCCTCTCACCTCGGCCTCGTGCTAG: 0.422 z-score
TTAGGTTTCGACTTTCAGTTAGTGCTA: 8.3 z-score
GACGATCTCAGACTGGACACGTGCTAG: -0.347 z-score

For quick reference, copied from above (study 2):
CATTCCGA: 0.0765
CCAGTTAG: -0.09
ACCTCGGC: -0.338
CAGGAGGG: -0.137
TTCTGCAA: 0.137
AGCCATTG: 0.029
CTCGGCAC: -0.35
TTTACAAA: 0.24
GCCCCGCC: -0.252
